Published values from different studies.
± marks the error that the study gave.
Organism: Plasmodium yoelii

Compound	test	test system	conditions	scale	quantity	value
COC1=CC(c2ccc[nH]2)=N/C1=C\c1[nH]c(Cc2ccc(OC(F)(F)F)cc2)cc1Cc1ccc(OC(F)(F)F)cc1		CF1 mouse	oral, 80 mg/kg single dose, day 5		parasitaemia reduction	100%
CCCCc1ccc(-c2ccc(-c3c(C)[nH]c(C)c(Br)c3=O)cn2)cc1		17XL	384-well		IC50	94 ± 8 nM
O=c1c2cc(F)c(Oc3ccc(OC(F)(F)F)cc3)cc2[nH]c2cc(Cl)cc(F)c12	antimalarial activity	CF1 mouse	oral, once daily for 4 days		ED50	0.19 mg/kg
CCCCCc1cc(/C=C2\N=C(c3ccc[nH]3)C=C2Oc2ccc(OC(F)(F)F)cc2)[nH]c1C.Cl	parasitaemia suppression	mouse	oral, 4 days		ED50	2.19 mg/kg/day
Cc1[nH]c(C)c(-c2ccc(C(=O)c3ccc(Cl)cc3)cc2)c(=O)c1Br		17XL	384-well		IC50	290 ± 66 nM
Cc1[nH]c(/C=C2\N=C(c3ccc[nH]3)C3=C2OCCO3)cc1Cc1ccc(OC(F)(F)F)cc1.Cl		CF1 mice	oral, 10 mg/kg daily for 4 days, day 5	baseline: vehicle	parasitaemia reduction	64.7%
Cc1nc2ccccc2c(O)c1-c1ccc(Cl)cc1		17XL	384-well		IC50	748 ± 30 nM
COC1=CC(c2ccc[nH]2)=N/C1=C\c1[nH]c(-c2ccccc2)cc1-c1ccccc1		CF1 mice	oral, 25 mg/kg daily for 4 days, day 5	baseline: vehicle	parasitaemia reduction	100%
Cc1ccc2[nH]c3ccccc3c(=O)c2c1		17XL	384-well		IC50	1100 ± 232 nM
Cc1[nH]c(/C=C2\N=C(c3ccc[nH]3)C=C2OC(C)C)cc1Cc1ccc(Cl)cc1.Cl	parasitaemia	mouse	4-day treatment, parasitaemia day 5		ED50	1.29 mg/kg/day
CC(C)(C)OC(=O)N1CCC(Oc2ccc3c(=O)c4c(F)cc(Cl)cc4[nH]c3c2)C1 (centres unmarked)	antimalarial activity	CF1 mouse	oral, once daily for 4 days		ED50	0.34 mg/kg
CCC1=C(CC)/C(=C/c2[nH]c(Cc3ccc(Cl)cc3)cc2Cc2ccc(Cl)cc2)N=C1c1ccc[nH]1		CF1 mice	oral, 10 mg/kg daily for 4 days, day 5	baseline: vehicle	parasitaemia reduction	100%
CC(C)(C)OC(=O)N1CCC(Oc2ccc3c(=O)c4c(F)cc(Cl)cc4[nH]c3c2)CC1	antimalarial activity	CF1 mouse	oral, once daily for 4 days		ED50	0.32 mg/kg
Cc1nc(C)c(-c2ccc(Oc3ccc(OC(F)(F)F)cc3)cc2)c(O)c1I		17XL	384-well		IC50	198 ± 40 nM
O=c1c2ccc(Oc3ccc(OC(F)(F)F)cc3)cc2[nH]c2cc(F)c(Cl)cc12	antimalarial activity	CF1 mouse	oral, once daily for 4 days		ED50	0.1 mg/kg
FC(F)(F)Oc1ccc(OC2=CC(c3ccc[nH]3)=N/C2=C\NC23CC4CC(CC(C4)C2)C3)cc1		CF1 mice	oral, 25 mg/kg daily for 4 days, day 5		parasitemia reduction	> 80%
O=c1c2ccc(OCc3cccc(OC(F)(F)F)c3)cc2[nH]c2cc(F)cc(Cl)c12	antimalarial activity	CF1 mouse	oral, once daily for 4 days		ED50	0.29 mg/kg
CC(C)CC1c2[nH]c3ccccc3c(=O)c2CN1C(=O)OC(C)(C)C (centres unmarked)		17XL	384-well		IC50	638 ± 10 nM
O=c1c2ccc(Oc3cccc(OC(F)(F)F)c3)cc2[nH]c2cc(Cl)cc(F)c12	antimalarial activity	CF1 mouse	oral, once daily for 4 days		ED50	0.84 mg/kg
Cc1[nH]c(/C=C2\N=C(c3ccc[nH]3)C3=C2OCCO3)cc1Cc1ccc(Cl)cc1.Cl		CF1 mice	oral, 10 mg/kg daily for 4 days, day 5	baseline: vehicle	parasitaemia reduction	63.9%

Excerpt of the above:
Compound	test	test system	conditions	scale	quantity	value
CCC1=C(CC)/C(=C/c2[nH]c(Cc3ccc(Cl)cc3)cc2Cc2ccc(Cl)cc2)N=C1c1ccc[nH]1		CF1 mice	oral, 10 mg/kg daily for 4 days, day 5	baseline: vehicle	parasitaemia reduction	100%
CC(C)(C)OC(=O)N1CCC(Oc2ccc3c(=O)c4c(F)cc(Cl)cc4[nH]c3c2)CC1	antimalarial activity	CF1 mouse	oral, once daily for 4 days		ED50	0.32 mg/kg
